# Measurements of several laboratories.
# Numbered parts are unrelated; each lists some results of a single study.

# Series 1 — technique: aptamer microarray, sandwich; molecule type: DNA with 2'F-ANA; sample: in vitro; tested at: 200 nM; added: Cy3 exosite-II aptamer, 400 nM; reading: higher = stronger binding; oligonucleotide: GGTTGGTGTGGTTGG
# Target: Prothrombin, mature alpha-thrombin (F2, Homo sapiens, UniProt P00734)
# Setting: whole 15-mer aptamer, many near background
Modification,mean fluorescence intensity [a.u.]
2'F-ANA at 2 6 9 14 15,122
2'F-ANA at 1 3 4 5 6 15,59.4
2'F-ANA at 3 6 7 8 14 15,555
2'F-ANA at 1 3 4 7 8 9 10 14,91.5
2'F-ANA at 6 10 12 13 14,118
2'F-ANA at 1 4 6 10 12,57.5
2'F-ANA at 2 4 6 7 9 10 11 13 15,74.6
2'F-ANA at 1 2 4 5 7 8 10 12 13 14 15,47.9
2'F-ANA at 1 3 6 7 10 11 14 15,58.1
2'F-ANA at 1 3 5 6 7 11 12 13 14,59.9
2'F-ANA at 1 4 5 7 8 9 10 11 12 14 15,51.9
2'F-ANA at 1 2 4 5 6 8 11 12 15,84.3
2'F-ANA at 1 8 9 10 11 14,50.1
2'F-ANA at 3 5 6 8 10 12,75.5
2'F-ANA at 2 3 4 9 10 11 13 14,184
2'F-ANA at 1 3 5 8 9 10 14 15,45
2'F-ANA at 3 5 10 11 12 15,62.7
2'F-ANA at 1 3 10,86.6
2'F-ANA at 2 3 13 14,458
2'F-ANA at 1 2 4 6 7 8 9 11 14,67.5
2'F-ANA at 2 4 6 7 12 14,149
2'F-ANA at 1 2 3 4 5 6 9 12 13 14,103
2'F-ANA at 1 5 8 11 12 14,44.7
2'F-ANA at 1 2 5 6 7 11 15,57.2
2'F-ANA at 1 7 9 12 14,66.1

# Series 2 — technique: RNA Bind-n-Seq; molecule type: RNA; sample: in vitro; tested at: 1 µM; setting: whole 134-nt RNA, ends assumed; added: 150 mM KCl; baseline: input library; reading: higher = stronger binding
# Target: Ras GTPase-activating protein-binding protein 1, C-terminal RGG region (G3BP1, Homo sapiens, UniProt Q13283)
# UniProt Q13283, sequence (whole entry, looked up): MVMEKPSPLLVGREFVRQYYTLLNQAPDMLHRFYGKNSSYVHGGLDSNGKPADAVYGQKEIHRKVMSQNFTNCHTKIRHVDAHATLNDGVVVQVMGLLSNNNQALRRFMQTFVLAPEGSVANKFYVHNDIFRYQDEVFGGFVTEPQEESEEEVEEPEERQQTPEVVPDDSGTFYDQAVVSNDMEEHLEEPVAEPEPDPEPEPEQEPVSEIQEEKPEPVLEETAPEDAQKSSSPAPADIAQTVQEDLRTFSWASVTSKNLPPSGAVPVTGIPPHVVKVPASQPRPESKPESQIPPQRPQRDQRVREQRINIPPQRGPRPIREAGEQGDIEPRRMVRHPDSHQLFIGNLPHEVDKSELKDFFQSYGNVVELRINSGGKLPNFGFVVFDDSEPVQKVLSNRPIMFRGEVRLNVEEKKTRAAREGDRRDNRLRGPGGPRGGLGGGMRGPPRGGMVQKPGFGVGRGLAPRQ
Oligonucleotide,log2 enrichment
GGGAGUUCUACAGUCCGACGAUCGUCCUGUGCUACACAUCGUAUGUACCGAAUCGGGGCCCCCGGGCCCCCGGGGCCCCCGGAAAGUAUUAUGUUACGCCGUUCGGAUCUGCAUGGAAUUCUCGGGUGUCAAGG,-2.23
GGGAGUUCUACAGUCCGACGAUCGUCCUGUGCUACACAUCGUAUGUACCGAAUCGGGAAAAAGGAAAAAGGGAAAAAGGGGAAAGUAUUAUGUUACGCCGUUCGGAUCUGCACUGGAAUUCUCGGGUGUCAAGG,-1.27
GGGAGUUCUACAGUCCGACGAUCGCAGGAAGUAAAAACAAAUGGAAAUGCUUCGGAUAGUGGCAGGGGUAGGGGUUGCUAAGGAAAGGGUGGGAUGGGAGUGGGUAAAGAGUUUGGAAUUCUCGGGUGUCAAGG,0.586
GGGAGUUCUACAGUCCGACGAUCGUCCUGUGCUACACAUCGUAUGUACCGAAUCAAAUUUUUAAACCCCCAAAUUUUUAAAAAAGUAUUAUGUUACGCCGUUCGGAUCUGCACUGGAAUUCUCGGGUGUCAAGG,-0.285
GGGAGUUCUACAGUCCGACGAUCUUAGGGCCAAUCUUCGUCAAUAUGGUUUAGAGAAGUAUUACCUUGAUGUCCUGGUUUCAGAUGCAUCUAAACCUUCCUGGAGGAAGGGCAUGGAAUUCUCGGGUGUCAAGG,-1.06
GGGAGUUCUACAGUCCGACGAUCCAAGUCCUGUGCUACACAUCGUAUGUACCGAAUCGGGGCCGGGGCCGGGCCGGGGAAAGUAUUAUGUUACGCCGUUCGGAUCUGCACUUCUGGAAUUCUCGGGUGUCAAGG,-0.685
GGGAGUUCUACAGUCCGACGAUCCCUCAGUGUCAUUUAUGAAAAGAGGGGACCAGAAGCCAAAGACUUAGUAUAUUUUCUUUUCCUCUGUCCCUUCCCCCAUAAGCCUCCAUUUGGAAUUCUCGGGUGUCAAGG,-0.891
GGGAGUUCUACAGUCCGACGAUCCCUGUGCUACACAUCGUAUGUACCGAAUCGGGGAAAAAAAGGGGAAAGGGGUUUUUGGGGAAAGUAUUAUGUUACGCCGUUCGGAUCUGCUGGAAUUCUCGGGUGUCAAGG,1.4
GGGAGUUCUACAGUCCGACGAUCUCAAGUCCUGUGCUACACAUCGUAUGUACCGAAUCGGGGAAGGAAGGGGAAGGGAAAGUAUUAUGUUACGCCGUUCGGAUCUGCACUUCCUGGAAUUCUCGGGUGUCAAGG,0.875
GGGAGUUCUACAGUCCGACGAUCGUUGUAGACACUCCUGGGAUCCUGGACCACCCUCUGGAGGAUAGGAACACCAUCGAGAUGCAGGCCAUCACUGCCCUGGCCCACCUCCGUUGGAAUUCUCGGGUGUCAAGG,0.487
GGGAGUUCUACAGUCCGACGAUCUCAAGUCCUGUGCUACACAUCGUAUGUACCGAAUCGGGUUGGGGUUGGGGUUGGAAAGUAUUAUGUUACGCCGUUCGGAUCUGCACUUCCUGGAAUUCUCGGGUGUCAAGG,0.351
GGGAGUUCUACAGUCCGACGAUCUCCUGUGCUACACAUCGUAUGUACCGAAUCGGGAAAGGGAAAAAAAGGGAAAAAAAGGGAAAGUAUUAUGUUACGCCGUUCGGAUCUGCAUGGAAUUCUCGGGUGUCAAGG,-0.656
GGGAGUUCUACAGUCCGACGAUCGUCCUGUGCUACACAUCGUAUGUACCGAAUCAAAUUUUUUUAAAUUUUUAAAUUUAAAAAAGUAUUAUGUUACGCCGUUCGGAUCUGCACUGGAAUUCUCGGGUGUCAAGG,-2.61
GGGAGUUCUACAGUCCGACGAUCCCUCAAGUCCUGUGCUACACAUCGUAUGUACCGAAUCGGGGUGGGUGGUGGGAAAGUAUUAUGUUACGCCGUUCGGAUCUGCACUUCCAGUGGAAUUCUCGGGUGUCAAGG,0.576

# Series 3 — technique: RNA Bind-n-Seq; molecule type: RNA; sample: in vitro; tested at: 365 nM; baseline: no-protein control; reading: higher = stronger binding
# Target: RNA binding protein fox-1 homolog 2, RRM domain, GST-SBP tag (RBFOX2, Homo sapiens, UniProt O43251-10, residues 100-194)
# Setting: natural RNA segment, single round, ends assumed
# Construct (chain): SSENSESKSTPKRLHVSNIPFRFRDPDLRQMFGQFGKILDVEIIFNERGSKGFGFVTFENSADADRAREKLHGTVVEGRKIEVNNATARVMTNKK
Oligonucleotide,RBNS enrichment (R)
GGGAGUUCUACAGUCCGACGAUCUCGUCACAGCUCCAGUCUCUCACAUAGUCCUUGGAUUCUGUGCCAUCUGAGUAACUGCUCUUGGUGGCUUCCACUGCCCUGAGGCUUUGAGGGAAGCACCUAACCUCUGCUGGAAUUCUCGGGUGCCAA,0.221
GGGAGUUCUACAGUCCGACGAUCAGAUGAACGCAGCAUGAAUCUCAUUUCCAUUUCUAAGCAGCUGGGUGGUGCGGCGAUUCUUUAGUUCCUGUUUUGUUUUUUUUCCUUUUCAAGCGCUAUCCACAUCUGACUGGAAUUCUCGGGUGCCAA,3.31
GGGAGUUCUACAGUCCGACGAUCCUGUGGAUUGUUUUUUACUUUUCCUUUUAAACCGGUUCGUAUAUAUUUUUCUUCGCUGUUACGAAUUUACAGCAGCAUUUGUACAUGUAAAAUUAAAGGCUAUUUUCUGGUGGAAUUCUCGGGUGCCAA,2.31
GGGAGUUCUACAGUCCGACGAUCGCCACACUGUGCGUCCUGGAGACAGAGCAGAGAUUGAGUAGGGAAACUGGCGUGAAAGGUGAGCAGGCGUCUGCGGAGCGGAUUCCUGUGGUGGACCGUGGAGUGCAGAGUGGAAUUCUCGGGUGCCAA,0.623
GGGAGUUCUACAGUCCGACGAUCGUCAUUGAGUAUUGAAGCCAUGACCUGGACUUCUGAAGGCUGUGACUUCACUAGAGCUAAGACACUGCUGGCAUUGUGGCCCCAUCCUUCCAAGACACAGGGAAGGAAGGUGGAAUUCUCGGGUGCCAA,0.431
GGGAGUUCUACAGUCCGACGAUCUUCUGAGCAAACAAAUGUGCUCCAUUCUUUUCCUCCAUGCUCCUAGCGCAGAAUGUUUUCUUGCAGAGCCUAGAGUACUUUGUUAAUGUUCUUCCGUUUGCUGCAACGAUUGGAAUUCUCGGGUGCCAA,0.496
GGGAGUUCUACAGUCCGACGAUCUGGAAUCAUGUGUCUGCCCUGUGUAUUGCAGUUUGUAUUGCCACAAGCUAUAUUUAUACCAGUGUCACCCUUUUCUUGUAGAAUAUACUAAUAAUCUGUGCCAACUCUACUGGAAUUCUCGGGUGCCAA,0.383
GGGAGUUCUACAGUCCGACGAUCCACUCUUCCAAAAAGACAACAGAACUGGAAUGAGAGGCCUGGGUCUGUCUCCUGCCUUAGCAGGCCUAUCAAUUUCUUGUCAAUCUCUUUUUUUCCUUGCUCACAUUAAAUGGAAUUCUCGGGUGCCAA,0.779
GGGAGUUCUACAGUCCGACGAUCAAACAGCUAUAGAUAACAUUAUCCAGUGAAGAGCAAAAUUCAAGCUUUAGAAAAUAUUCAUGCAUGCAAUUUUGACAUAUCUAAAAAUAGGUUUUUGUAUAUUUAUGGUGUGGAAUUCUCGGGUGCCAA,1.13
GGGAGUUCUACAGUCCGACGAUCCCCUUGCAGCAAGCACUACAAUGUAUGUGAUCGUCAAUGUGAAUAGCUUAGAAUACUGCAAAGGAUAAGCUAAUUGAAUGCCUUGAAAGUAUUAUCCACUGGUCAGAUGGUGGAAUUCUCGGGUGCCAA,0.775
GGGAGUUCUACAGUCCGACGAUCUGCUGUCAGCCUUUGGGACAGUGGCUCUCAAAAGCCAAGAGCUCUUGGUUUAUCUGCACAGUACAAGCUGCUGGUAGACUACACUAGCCCUCUGGUUUCCCAGCGCAGCCUGGAAUUCUCGGGUGCCAA,0.323
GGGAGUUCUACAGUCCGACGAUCAAAUUUCCCAUGUAAGCUGCAGUUUCUAUCUUUAGCCCAUCAUCAUUUUCUGCCCCCCCAAAAUCUGUUGAAAUGAUUCACUGAUGCAAAACAUUCACCCGUAAUAGACUUGGAAUUCUCGGGUGCCAA,0.758

# Series 4 — technique: protein-binding microarray; molecule type: hairpin DNA; sample: in vitro; tested at: not given; baseline: not given; reading: higher = stronger binding; shared flanks, not repeated: GCAGGCC … GGCCTGCACACTCTTTCCCTACACGAC
# Target: Transcription factor SOX-2, HMG box (SOX2, Homo sapiens, UniProt P48431, residues 37-118)
# UniProt P48431, sequence (37-118, looked up): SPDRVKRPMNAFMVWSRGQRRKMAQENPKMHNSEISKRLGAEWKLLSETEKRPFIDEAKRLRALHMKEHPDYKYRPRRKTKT
# Setting: whole hairpin DNA, median over replicate spots
Oligonucleotide,median fluorescence [a.u.]
CACAACCGGCCTCCTGGCCGGTTGTG,2570
CACAATGGGCCTCCTGGCCCATTGTG (5mC at 26),3490
CCAAATGGGCCTCCTGGCCCATTTGG (5mC at 9),2380
AACAATGGGCCTCCTGGCCCATTGTT,5350
CACAATCCGCCTCCTGGCGGATTGTG,2640
CACCTTGGGCCTCCTGGCCCAAGGTG,2370
CACAATAGGCCTCCTGGCCTATTGTG,3750
CACAGTGGGCCTCCTGGCCCACTGTG (5mC at 29),2390
CGCAATGGGCCTCCTGGCCCATTGCG (5mC at 8 32),2470
CACGATGGGCCTCCTGGCCCATCGTG,2350
CCTAATGGGCCTCCTGGCCCATTAGG (5mC at 9),2470
CACCATGGGCCTCCTGGCCCATGGTG (5mC at 11),2440
CAAAATGGGCCTCCTGGCCCATTTTG,2500
